Published values gathered from unrelated publications.
Numbers after ± are the reported error.
rep nsp14 N7-methyltransferase: Replicase polyprotein 1ab, nsp14 N7-methyltransferase (rep, Severe acute respiratory syndrome coronavirus 2, UniProt P0DTD1)
rep main protease: Replicase polyprotein 1ab, main protease (rep, Severe acute respiratory syndrome coronavirus 2, UniProt P0DTD1)
rep nsp13 helicase: Replicase polyprotein 1ab, nsp13 helicase (rep, Severe acute respiratory syndrome coronavirus 2, UniProt P0DTD1)
rep nsp14 methyltransferase: Replicase polyprotein 1ab, nsp14 methyltransferase (rep, Severe acute respiratory syndrome coronavirus 2, UniProt P0DTD1)
rep papain-like protease: Replicase polyprotein 1ab, papain-like protease (rep, Severe acute respiratory syndrome coronavirus 2, UniProt P0DTD1)

| Molecule | target or system | assay | system | conditions | scale | endpoint | value |
| --- | --- | --- | --- | --- | --- | --- | --- |
| Cn1cnc(Cn2c(=O)[nH]/c(=N\c3cc4cn(C)nc4cc3Cl)n(Cc3cc(F)c(F)cc3F)c2=O)n1 |  |  | human, severe renal impairment | oral, 375 mg |  | dry mouth TEAE, Mild severity | 0% |
| Oc1c(Cl)cc(Cl)c(Cl)c1Cc1c(O)c(Cl)cc(Cl)c1Cl | rep nsp14 N7-methyltransferase | N7-methyltransferase activity, inhibitor, Py-FLINT |  |  |  | Hill slope | 1.82 ± 0.1 |
| O.c1cnc2c(c1)ccc1cccnc12 | rep main protease | reporter gene (Gaussia luciferase), inhibitor |  | 20 µM |  | inhibition | -3.8% |
| Nc1ncnc2c1ncn2[C@@H]1O[C@H](Cn2cc(CNS(=O)(=O)c3ccccc3)nn2)[C@@H](O)[C@H]1O | rep nsp14 N7-methyltransferase | N7-methyltransferase activity, inhibitor, radioactive filter binding |  | 50 µM, 0.5 h, 30 °C, added: GpppAC4 RNA, SAM |  | remaining binding | > 50% |
| O=C(NCC[C@@H]1c2ccccc2CCN1C(=O)c1ncnc2[nH]ccc12)c1ccc[n+]([O-])c1 | rep main protease | enzyme activity, inhibitor |  | 5 µM, run 1 |  | inhibition | 12.8% |
| CC(C)CN(C[C@@H](O)[C@H](Cc1ccccc1)NC(=O)O[C@H]1CO[C@H]2OCC[C@H]21)S(=O)(=O)c1ccc(N)cc1.CCO | rep main protease | reporter gene (Gaussia luciferase), inhibitor |  | 20 µM |  | inhibition | 0.32% |
| O=C(NC[C@H](NC(=O)c1cncc2ccccc12)c1ccc2ccccc2c1)c1cnc[nH]1 | rep main protease | enzyme activity |  | 5 µM, mean of runs |  | inhibition | 19% |
| Nc1ncnc2c([C@@H]3N[C@H](CO)[C@@H](O)[C@H]3O)c[nH]c12 | Marburg marburgvirus | viral RNA in cell lysate | HeLa, Musoke | 100 µM |  | inhibition | 97.6% |
| N#C[C@@]1(n2ccc(N)nc2=O)O[C@H](COP(=O)(O)OP(=O)(O)OP(=O)(O)O)[C@@H](O)[C@H]1O | Replicase polyprotein 1ab, nsp12 with nsp7/nsp8 (rep, Severe acute respiratory syndrome coronavirus 2, UniProt P0DTD1) |  |  | added: 0.1 µM RNA |  | CNC:C mismatch amplitude | < 5% |
| O=C(NCCC[C@@H](NC(=O)c1cccc2cc(=O)[nH]cc12)c1ccccc1)c1cn[nH]c(=O)c1 | rep main protease | enzyme activity, inhibitor |  | 5 µM, mean of runs |  | inhibition | 14.1% |
| CC(C)c1cccc(C(C)C)c1N1C(=O)c2ccc(N)cc2C1=O | rep main protease | viral replication, mKate2 reporter | SARS-CoV-2 | 20 µM |  | inhibition | 0.541% |
| Cc1cccc(N2CC(C(=O)O)CC2=O)c1 (centres unmarked) | rep nsp13 helicase | binding, affinity selection mass spectrometry |  |  | reference: other proteins in batch | fold enrichment | 0.887 |
| CC(C)C1CC(c2ccc(C(=O)O)cc2)=NN1c1ccc(C#N)c(Cl)c1.N (centres unmarked) | rep nsp14 methyltransferase |  |  |  |  | lipophilic ligand efficiency | 1.6 |
| Cc1cccc(CNC(=O)c2cccc(-c3ccc(S(=O)(=O)CC(=O)O)cc3)c2)c1C | rep nsp13 helicase | NSP13 ATPase activity, Kinase-Glo luminescence | SARS-CoV-2 | concentration not given |  | activity class | inactive |
| CCOC(=O)c1c(NC(=O)c2ccc3c(c2)CC(c2ccccc2)OC3=O)sc(C)c1C (centres unmarked) | rep nsp14 N7-methyltransferase | N7-methyltransferase activity, inhibitor, Py-FLINT |  |  |  | Hill slope | 1.04 ± 0.08 |
| CCO.C[C@H]1c2cccc(O)c2C(O)=C2C(=O)[C@]3(O)C(O)=C(C(N)=O)C(=O)[C@@H](N(C)C)[C@@H]3[C@@H](O)[C@@H]21.C[C@H]1c2cccc(O)c2C(O)=C2C(=O)[C@]3(O)C(O)=C(C(N)=O)C(=O)[C@@H](N(C)C)[C@@H]3[C@@H](O)[C@@H]21.Cl.Cl.O | rep main protease | reporter gene (Gaussia luciferase), inhibitor |  | 20 µM |  | inhibition | 3.36% |
| CCC(C(=O)Nc1cc(NC2COC2)ccc1C)n1cccc2nc(SCc3ccc(F)cc3)nc1-2 (centres unmarked) | rep papain-like protease | binding |  |  |  | koff | 0.155 ± 0.014 s⁻¹ |
| CC(C)(C)NC(=O)[C@@H]1CN(Cc2cccnc2)CCN1C[C@@H](O)C[C@@H](Cc1ccccc1)C(=O)N[C@H]1c2ccccc2C[C@H]1O | rep main protease | reporter gene (mKate2), inhibitor |  | 20 µM |  | inhibition | -0.0941% |
| CCC(C(=O)Nc1cc(NC2CCOCC2)ccc1C)n1cc(Cl)cc2nc(SCc3ccc(F)cc3)nc1-2 (centres unmarked) | rep papain-like protease | binding |  |  |  | koff | 0.15 s⁻¹ |
| Cc1nc(C)c(CCC(=O)N2C[C@]34CCC[C@@]3(C2)CN(C(=O)[C@@H]2CCC(=O)NC2)C4)c(=O)[nH]1 | rep main protease | enzyme activity, inhibitor |  | 5 µM, run 1 |  | inhibition | 13.9% |
| Cn1cc(C(=O)Nc2nc(-c3ccccn3)cs2)c2ccccc2c1=O | rep nsp14 N7-methyltransferase | N7-methyltransferase activity, inhibitor, Py-FLINT |  |  |  | Hill slope | 1.16 ± 0.2 |
| CC[C@H](C)[C@H](NC(=O)[C@H](CC(C)C)NC(=O)[C@H](Cc1c[nH]c2ccccc12)NC(=O)[C@H](CCC(N)=O)NC(=O)[C@@H](NC(=O)[C@H](Cc1ccccc1)NC(=O)[C@H](C)NC(=O)[C@H](CCCCNC(=O)COCCOCCNC(=O)COCCOCCNC(=O)CC[C@H](NC(=O)CCCCCCCCCCCCCCCCCCC(=O)O)C(=O)O)NC(=O)[C@H](CCC(N)=O)NC(=O)[C@H](C)NC(=O)[C@@H](NC(=O)[C@H](CCCCN)NC(=O)[C@H](CC(=O)O)NC(=O)[C@H](CC(C)C)NC(=O)C(C)(C)NC(=O)[C@@H](NC(=O)[C@H](CO)NC(=O)[C@H](Cc1ccc(O)cc1)NC(=O)[C@H](CC(=O)O)NC(=O)[C@H](CO)NC(=O)[C@@H](NC(=O)[C@H](Cc1ccccc1)NC(=O)[C@@H](NC(=O)CNC(=O)[C@H](CCC(=O)O)NC(=O)C(C)(C)NC(=O)[C@@H](N)Cc1ccc(O)cc1)[C@@H](C)O)[C@@H](C)O)[C@@H](C)CC)[C@@H](C)CC)C(C)C)C(=O)N[C@@H](C)C(=O)NCC(=O)NCC(=O)N1CCC[C@H]1C(=O)N[C@@H](CO)C(=O)N[C@@H](CO)C(=O)NCC(=O)N[C@@H](C)C(=O)N1CCC[C@H]1C(=O)N1CCC[C@H]1C(=O)N1CCC[C@H]1C(=O)N[C@@H](CO)C(N)=O |  |  | healthy subjects, single ascending dose | 8.0 mg, day 29 |  | serum lipase | 50.1 ± 23.9 U/L |

| Molecule | target or system | assay | system | conditions | scale | endpoint | value |
| --- | --- | --- | --- | --- | --- | --- | --- |
| COc1cc(O)cc(OC)c1 | rep main protease | reporter gene (Gaussia luciferase), inhibitor |  | 20 µM |  | inhibition | 3.11% |
| COC(=O)C1=C(C(=O)OC)C(c2ccc(Cl)cc2)c2sc(=O)[nH]c2S1 (centres unmarked) | rep nsp14 N7-methyltransferase | N7-methyltransferase activity, inhibitor, Py-FLINT |  |  |  | Hill slope | 0.74 ± 0.24 |
| CN(C(=O)[C@H](Cc1ccccc1)NC(=O)OCc1ccccc1)N(C#N)CCC(N)=O | rep main protease | inhibitor, biochemical |  |  |  | kinact/Ki | 1150 M⁻¹ s⁻¹ |
| O=C(N[C@@H](CNC(=O)[C@H]1CC12CC2)c1ccc2ccccc2c1)c1cncc2ccccc12 | rep main protease | enzyme activity, inhibitor |  | 5 µM, mean of runs |  | inhibition | 13.3% |
| C=C[C@@H]1C[C@]1(NC(=O)[C@@H]1C[C@@H](Oc2ncc(OC)c3ccc(Cl)cc23)CN1C(=O)[C@@H](NC(=O)OC(C)(C)C)C(C)(C)C)C(=O)NS(=O)(=O)C1CC1 | rep main protease | reporter gene (mKate2), inhibitor |  | 20 µM |  | inhibition | -0.0949% |
| O=c1c2ccccc2[se]n1-c1ccccc1 | rep main protease | enzyme activity, inhibitor, FRET |  |  |  | Hill coefficient | 2.61 ± 0.25 |
| C#CC1(C(=O)NC[C@H](NC(=O)c2cncc3[nH]ccc23)c2ccc3ccccc3c2)CC1 | rep main protease | enzyme activity, inhibitor |  | 5 µM, mean of runs |  | inhibition | 14.8% |
| ivermectin | rep nsp13 helicase | ATP hydrolysis, inhibitor, ADP-Glo |  | concentration not given |  | ATPase inhibition | no inhibition |
| O.O=c1c(O)c(-c2ccc(O)cc2O)oc2cc(O)cc(O)c12 | rep nsp14 N7-methyltransferase | N7-methyltransferase activity, inhibitor, Py-FLINT |  |  |  | Hill slope | 1.86 ± 0.08 |
| Cc1cnoc1C(=O)NC[C@@H]1CC2(CCOCC2)CN1C(=O)c1cc(F)cc(C(N)=O)c1 | rep main protease | enzyme activity, inhibitor |  | 5 µM, run 1 |  | inhibition | 12.9% |
| C=CCn1c(CSc2ccccc2[N+](=O)[O-])n[nH]c1=S | rep nsp13 helicase | inhibitor, gel |  | 1 mM, 60 min |  | dsRNA unwinding activity | inhibited |
| O=C(O)C1=CC(=C(c2ccc(O)c(C(=O)O)c2)c2ccc(O)c(C(=O)O)c2)C=CC1=O | rep nsp14 N7-methyltransferase | N7-methyltransferase activity, inhibitor, Py-FLINT |  |  |  | Hill slope | 0.87 ± 0.06 |
| C=CS(=O)(=O)N(c1ccc(C(C)(C)C)cc1)C(C(=O)NCCc1cccc(Cl)c1)c1cccnc1 (centres unmarked) | rep main protease | enzyme activity, inhibitor |  |  |  | kinact | 0.017 s⁻¹ |
| O=C(NC[C@H](NC(=O)c1cn[nH]c1-c1ccoc1)c1ccc2ccccc2c1)c1ccccc1 | rep main protease | enzyme activity, inhibitor |  | 5 µM, run 1 |  | inhibition | 13.2% |
| O=C(Nc1ccc(-c2nc3ccccc3o2)cc1)c1ccc(NC(=O)c2cc3ccccc3o2)cc1 | rep main protease | viral replication, mKate2 reporter | SARS-CoV-2 | 20 µM |  | inhibition | -0.209% |
| Cc1nn(-c2ccc(Cl)cc2)c2c1C(c1ccc(Cl)cc1Cl)C(C#N)=C(N)O2 (centres unmarked) | rep main protease | 3CL protease activity |  | 0.01 µg/mL, 90 min, enzyme 10 ng/mL |  | inhibition | 28.5% |
| Rhodiosin | rep main protease | inactivator |  |  |  | kinact | 0.000438 s⁻¹ |
| CC[C@H](NC(=O)CCC(=O)O)C(=O)N[C@H](C(=O)N[C@@H](CC(C)C)C(=O)N[C@@H](CCC(N)=O)C(=O)Nc1ccc2c(C)cc(=O)oc2c1)C(C)(C)C | rep main protease | substrate | 5% DMSO | pH 7.2, 37 °C |  | apparent kcat | 0.43 s⁻¹ |
| CC(C)c1nnc(NC(=O)c2cccc(N3C(=O)c4ccccc4C3=O)c2)s1 | rep nsp14 N7-methyltransferase | N7-methyltransferase activity, inhibitor, Py-FLINT |  |  |  | Hill slope | 1.03 ± 0.16 |
| CCC1CC(c2ccc(C(=O)O)cc2)=NN1c1ccc(C#N)c(Cl)c1.N (centres unmarked) | rep nsp14 methyltransferase |  |  |  |  | lipophilic ligand efficiency | 2.6 |
| CC[C@H](NC(=O)OCc1ccccc1)C(=O)N[C@H](C(=O)N[C@@H](CC(C)C)C(=O)N(C)N(C#N)CCC(N)=O)C(C)(C)C | rep main protease | inhibitor, biochemical |  |  |  | kinact/Ki | 21400 M⁻¹ s⁻¹ |
| O=C(NC1CCCc2c1[nH]c1ccccc21)c1cc(=O)[nH]c2ccccc12 (centres unmarked) | rep nsp14 N7-methyltransferase | N7-methyltransferase activity, inhibitor, Py-FLINT |  |  |  | Hill slope | 1.3 ± 0.1 |

Some of these lines once more:
| Molecule | target or system | assay | system | conditions | scale | endpoint | value |
| --- | --- | --- | --- | --- | --- | --- | --- |
| O=C(O)C1=CC(=C(c2ccc(O)c(C(=O)O)c2)c2ccc(O)c(C(=O)O)c2)C=CC1=O | rep nsp14 N7-methyltransferase | N7-methyltransferase activity, inhibitor, Py-FLINT |  |  |  | Hill slope | 0.87 ± 0.06 |
| C=CS(=O)(=O)N(c1ccc(C(C)(C)C)cc1)C(C(=O)NCCc1cccc(Cl)c1)c1cccnc1 (centres unmarked) | rep main protease | enzyme activity, inhibitor |  |  |  | kinact | 0.017 s⁻¹ |
| O=C(NC[C@H](NC(=O)c1cn[nH]c1-c1ccoc1)c1ccc2ccccc2c1)c1ccccc1 | rep main protease | enzyme activity, inhibitor |  | 5 µM, run 1 |  | inhibition | 13.2% |
| O=C(Nc1ccc(-c2nc3ccccc3o2)cc1)c1ccc(NC(=O)c2cc3ccccc3o2)cc1 | rep main protease | viral replication, mKate2 reporter | SARS-CoV-2 | 20 µM |  | inhibition | -0.209% |
